# Published values of several laboratories.
# Every numbered part comes from another study and shows a few of its results, in no order.

# Sample 1 — effect on: enzyme activity; tested at: 20 µM; notes: with DTT
# Target: Replicase polyprotein 1ab, main protease (rep, Severe acute respiratory syndrome coronavirus 2, UniProt P0DTD1)
Structure (SMILES),inhibition [%]
CN1CCN(C(=O)c2ccc(-c3ccc4c(C=O)c(O)ccc4c3)s2)CC1,66.5
CN(C)S(=O)(=O)c1cccc(-n2sc3ccccc3c2=O)c1,99.8
CCC(C)SSc1ncc[nH]1 (stereo not shown),7.8

# Sample 2 — method: RNA Bind-n-Seq; form: RNA; sample: in vitro; tested at: 365 nM; baseline: no-protein control; reading: higher = stronger binding
# Target: RNA binding protein fox-1 homolog 2, RRM domain, GST-SBP tag (RBFOX2, Homo sapiens, UniProt O43251-10, residues 100-194)
# Notes: natural RNA segment, single round, ends assumed
# Shared flanks, not repeated: GGGAGUUCUACAGUCCGACGAUC … UGGAAUUCUCGGGUGCCAA
# Residues (chain): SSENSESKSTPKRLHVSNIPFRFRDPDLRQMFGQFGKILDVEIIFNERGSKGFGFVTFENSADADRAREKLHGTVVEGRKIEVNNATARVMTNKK
Oligonucleotide,RBNS enrichment (R)
CCCAGACGAAUCUUUAUAAUUUCUUUCCAAAGAUACCAAAUAAACUUCAGUGUUUUCAUCUAAUUCUCUUAAAGUUGAUAUCUUAAUAUUUUGUGUUGAUCAUUAUUUCC,0.902
CACAGGGACCCAGUGCAGAAUCUCCAGCCUUAAUUCUUGCUUCAGGACCCAAACCAGCGCCUCACUCUAGGGUAGCCCAGGGCGCAGGUGCCAGGUCUGCCUAGCGUUUA,0.303
CUGGCUCAGACCUCUUAGACUGGUCUCUCUUCCUCAGCUGCUGGGUUCUUUGUCUGCCCAGCUAUUGGAGGAUGGGAAGUGGAGGGAGGGUCACUCUUUCCCUCUUACUG,0.566
UUCUGUGCCCAGGAGCAGCUGGGGGUUCCACCUCAGGGUGGGGCGGGCAGGACCCCGUCUCCCCAGGUGUCGGAGCCUGACCUGAAUUAAAGUACUGACUGCUCGCCACA,0.344
GCUGCUAAAUCUCCUAUUUUUUUAAAAUCACUAACAUUAUAUUGCAAUGAAGGAAAUAAAAAAGUCUCUAUUUAAAUUCUUUUUUAAAUUUUCUUCAGUUGGUGUGUUUU,1.51
GGUGUUCAACACACGAAAUGCUCAAUAAACAUCAGGCUGUCCCCUCCUGGGGCAGGCCUUGAAACGGUGCGUGUGAGUAAUGAGAGGUUUAUAAUCCAGCUGUGUCUUAU,0.428
UUCCCGGCCGUGGACCAUAGUCGGGAUGUCAGCAGACACACAUGGGCAGCCCAAAGCUGCAGGUGCCAGGGCCCACCCCAGCCUCGCCUGUCACCCCCACUCCCGCCUCA,0.245
GGAUGACAUCGAACGUUUGGCCAGCCGCUUUCUACACCCUGAAGUGACUGAGGCUAUGGAAAAAGGGUUCUGCAAAUAGCAUUCUGGGAUUGUGGGGAGAAAUCCCAGGU,0.821

# Sample 3 — action: inhibitor; tested at: 20 µM
# Target: Replicase polyprotein 1ab, nsp13 helicase (rep, Severe acute respiratory syndrome coronavirus 2, UniProt P0DTD1)
SMILES,inhibition
CC1(C)CCC2=C(O1)c1ccccc1C(=O)C2=O,10.7%
NCCCCCc1c[nH]cn1,-3.93%
COc1cc2c(cc1OC)-c1cc3nc4ccccc4nc3n1C(C)(C)C2,7.02%
CC(C)(C)NCC(O)c1ccccc1Cl (stereo not shown),2%
CN1CCN(C(c2ccccc2)c2ccccc2)CC1,-0.15%
COc1ccc(C(=O)C2CCN(CC(=O)N(Cc3nc4c(c(=O)[nH]3)COCC4)CC3CC3)CC2)cc1,4.93%
CCc1ccc(CCOc2ccc(CC3SC(=O)NC3=O)cc2)nc1 (stereo not shown),3.9%
COc1cc2nccc(Oc3ccc(NC(=O)C4(C(=O)Nc5ccc(F)cc5)CC4)cc3)c2cc1OC,-3.85%
N#C/C(=C\c1ccc(O)c(O)c1)C(=O)OCCc1cccs1,8.66%
Cc1ccc2c(c1)c1c(n2CCc2ccc(C)nc2)CCN(C)C1,48.8%
Cc1nc2ccccc2n1Cc1ccc(Cl)cc1,0.83%
CN1CC[C@@]2(C)c3cc(O)ccc3N(C)[C@@H]12,26.3%
Cc1sc2c(c1C)C(c1ccc(Cl)cc1)=N[C@@H](CC(=O)Nc1ccc(OCCOCCOCCOCCNc3cccc4c3C(=O)N(C3CCC(=O)NC3=O)C4=O)cc1)c1nnc(C)n1-2 (stereo partly shown),7.45%
CN(C)CCCn1cc(C2=C(c3c[nH]c4ccccc34)C(=O)NC2=O)c2ccccc21,21.9%
COc1nc2ccc(Br)cc2cc1[C@@H](c1ccccc1)[C@@](O)(CCN(C)C)c1cccc2ccccc12,92.3%
OCC(Br)(Br)Br,-3.29%
CC(C)N1CCN(c2ccc(C(=O)c3c(-c4ccc(O)cc4)sc4cc(O)ccc34)cc2)CC1,3.34%
Nc1c2c(nc3c1CCC3)CCCC2,2.36%

# Sample 4 — cell line: HEK-293T; effect on: pseudovirus infection; method: FDA-approved drug library screen; organism: VSV pseudotyped with SARS-CoV-2 spike; tested at: 10 µM; time: 16 h; baseline: vehicle-treated
Compound,GFP-positive cells [%]
CC(C)OC(=O)CCC/C=C\C[C@@H]1[C@@H](CC[C@@H](O)CCc2ccccc2)[C@H](O)C[C@@H]1O,121
C[C@H](CCC(=O)O)[C@H]1CC[C@H]2[C@@H]3CC[C@@H]4C[C@H](O)CC[C@]4(C)[C@H]3C[C@H](O)[C@]12C,78.4
CCC1(c2ccc(N)cc2)CCC(=O)NC1=O (stereo not shown),77.3

# Sample 5 — method: RNA Bind-n-Seq; form: RNA; sample: in vitro; tested at: 15 pmol; notes: 4-mer, random 30-nt RNA, single round; together with: 3 µM RocA, 2 mM AMP-PNP; baseline: mean of 4-mers; reading: higher = stronger binding
# Target: Eukaryotic initiation factor 4A-I (EIF4A1, Homo sapiens, UniProt P60842, residues 1-406, full length assumed)
# UniProt P60842, sequence (whole entry, looked up): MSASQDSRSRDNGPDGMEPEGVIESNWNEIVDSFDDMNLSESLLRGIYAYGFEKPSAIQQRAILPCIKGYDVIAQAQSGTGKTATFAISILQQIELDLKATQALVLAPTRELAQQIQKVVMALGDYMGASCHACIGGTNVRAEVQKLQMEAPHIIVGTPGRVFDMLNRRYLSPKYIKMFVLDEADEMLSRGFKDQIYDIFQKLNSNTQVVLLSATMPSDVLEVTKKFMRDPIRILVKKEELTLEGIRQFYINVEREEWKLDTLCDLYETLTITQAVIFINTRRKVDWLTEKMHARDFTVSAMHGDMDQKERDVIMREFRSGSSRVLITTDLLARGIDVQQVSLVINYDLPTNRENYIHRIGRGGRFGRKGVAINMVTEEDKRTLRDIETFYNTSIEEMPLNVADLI
Oligonucleotide,4-mer enrichment Z-score
UAUC,-1.04
GAUC,-0.707
GACA,-0.564
CUAC,-1.2
AUAU,0.183

# A few entries again (sample 5):
Oligonucleotide,4-mer enrichment Z-score
CUAC,-1.2
AUAU,0.183
